{"data": "Measurements from different studies", "note": "Parts stem from different laboratories: compare values within a part only. Values joined by “and” are separate records of one study, mostly repeats; a detail may differ. ± marks the error that the study gave.", "UniProt P41143, sequence (whole entry, unmodified, looked up)": "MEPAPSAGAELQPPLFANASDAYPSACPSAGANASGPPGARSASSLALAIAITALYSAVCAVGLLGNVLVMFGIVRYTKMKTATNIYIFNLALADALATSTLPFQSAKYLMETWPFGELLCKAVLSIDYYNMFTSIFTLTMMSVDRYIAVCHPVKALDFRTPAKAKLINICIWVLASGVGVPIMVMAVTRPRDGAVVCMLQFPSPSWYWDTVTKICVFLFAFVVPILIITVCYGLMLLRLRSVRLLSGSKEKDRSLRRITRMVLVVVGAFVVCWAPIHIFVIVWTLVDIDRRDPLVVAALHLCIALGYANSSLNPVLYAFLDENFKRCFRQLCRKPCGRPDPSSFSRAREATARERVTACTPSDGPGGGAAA", "UniProt Q9UKT9, sequence (whole entry, looked up)": "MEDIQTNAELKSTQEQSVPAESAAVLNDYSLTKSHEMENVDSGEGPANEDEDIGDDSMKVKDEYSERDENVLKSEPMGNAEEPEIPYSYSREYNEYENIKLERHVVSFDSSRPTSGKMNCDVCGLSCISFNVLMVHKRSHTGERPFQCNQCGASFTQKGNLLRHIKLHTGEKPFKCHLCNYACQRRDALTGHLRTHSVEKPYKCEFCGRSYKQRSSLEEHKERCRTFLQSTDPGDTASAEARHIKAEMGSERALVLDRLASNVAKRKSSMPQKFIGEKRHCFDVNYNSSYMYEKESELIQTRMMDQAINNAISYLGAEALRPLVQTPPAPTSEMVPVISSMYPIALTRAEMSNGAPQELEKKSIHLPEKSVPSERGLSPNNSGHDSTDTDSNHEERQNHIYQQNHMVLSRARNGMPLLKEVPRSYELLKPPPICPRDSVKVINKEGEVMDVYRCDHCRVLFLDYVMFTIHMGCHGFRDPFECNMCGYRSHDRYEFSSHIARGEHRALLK", "UniProt P32300, sequence (whole entry, looked up)": "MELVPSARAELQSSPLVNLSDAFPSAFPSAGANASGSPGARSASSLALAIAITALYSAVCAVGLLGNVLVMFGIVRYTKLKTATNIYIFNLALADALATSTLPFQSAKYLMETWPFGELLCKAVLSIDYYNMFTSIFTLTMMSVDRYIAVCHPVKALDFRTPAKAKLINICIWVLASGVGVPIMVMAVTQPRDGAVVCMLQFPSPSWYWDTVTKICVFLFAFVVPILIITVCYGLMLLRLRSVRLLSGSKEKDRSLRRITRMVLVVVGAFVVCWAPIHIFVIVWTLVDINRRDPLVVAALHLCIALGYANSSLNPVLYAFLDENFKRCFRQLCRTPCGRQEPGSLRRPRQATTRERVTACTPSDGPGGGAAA"}
{"data": "Sample 1", "Compound": "Cn1cc(-c2cccc(CN3CCC4(CC3)COc3c4ccc4c3CN([C@@H]3CCC(=O)NC3=O)C4=O)c2)cn1", "action": "degrader", "method": "HiBiT", "cell line": "HEK293", "CSNK1A1": "Casein kinase I isoform alpha (CSNK1A1, Homo sapiens, UniProt P48729)", "SALL4": "Sal-like protein 4 (SALL4, Homo sapiens, UniProt Q9UJQ4)", "DNA-binding protein Ikaros": "DNA-binding protein Ikaros (Homo sapiens, UniProt Q13422)", "GSPT1": "Eukaryotic peptide chain release factor GTP-binding subunit ERF3A (GSPT1, Homo sapiens, UniProt P15170)", "UniProt P48729, sequence (whole entry, looked up)": "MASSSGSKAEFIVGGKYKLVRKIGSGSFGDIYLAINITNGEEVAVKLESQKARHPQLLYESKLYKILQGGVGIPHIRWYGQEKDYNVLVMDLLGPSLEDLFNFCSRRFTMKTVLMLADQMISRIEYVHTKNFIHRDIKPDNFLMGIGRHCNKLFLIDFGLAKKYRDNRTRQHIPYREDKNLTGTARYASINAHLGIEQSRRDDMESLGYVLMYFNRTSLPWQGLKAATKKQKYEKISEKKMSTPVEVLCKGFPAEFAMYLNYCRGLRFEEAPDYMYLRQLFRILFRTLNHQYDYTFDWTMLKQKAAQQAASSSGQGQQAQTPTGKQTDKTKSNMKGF", "UniProt Q9UJQ4, sequence (whole entry, looked up)": "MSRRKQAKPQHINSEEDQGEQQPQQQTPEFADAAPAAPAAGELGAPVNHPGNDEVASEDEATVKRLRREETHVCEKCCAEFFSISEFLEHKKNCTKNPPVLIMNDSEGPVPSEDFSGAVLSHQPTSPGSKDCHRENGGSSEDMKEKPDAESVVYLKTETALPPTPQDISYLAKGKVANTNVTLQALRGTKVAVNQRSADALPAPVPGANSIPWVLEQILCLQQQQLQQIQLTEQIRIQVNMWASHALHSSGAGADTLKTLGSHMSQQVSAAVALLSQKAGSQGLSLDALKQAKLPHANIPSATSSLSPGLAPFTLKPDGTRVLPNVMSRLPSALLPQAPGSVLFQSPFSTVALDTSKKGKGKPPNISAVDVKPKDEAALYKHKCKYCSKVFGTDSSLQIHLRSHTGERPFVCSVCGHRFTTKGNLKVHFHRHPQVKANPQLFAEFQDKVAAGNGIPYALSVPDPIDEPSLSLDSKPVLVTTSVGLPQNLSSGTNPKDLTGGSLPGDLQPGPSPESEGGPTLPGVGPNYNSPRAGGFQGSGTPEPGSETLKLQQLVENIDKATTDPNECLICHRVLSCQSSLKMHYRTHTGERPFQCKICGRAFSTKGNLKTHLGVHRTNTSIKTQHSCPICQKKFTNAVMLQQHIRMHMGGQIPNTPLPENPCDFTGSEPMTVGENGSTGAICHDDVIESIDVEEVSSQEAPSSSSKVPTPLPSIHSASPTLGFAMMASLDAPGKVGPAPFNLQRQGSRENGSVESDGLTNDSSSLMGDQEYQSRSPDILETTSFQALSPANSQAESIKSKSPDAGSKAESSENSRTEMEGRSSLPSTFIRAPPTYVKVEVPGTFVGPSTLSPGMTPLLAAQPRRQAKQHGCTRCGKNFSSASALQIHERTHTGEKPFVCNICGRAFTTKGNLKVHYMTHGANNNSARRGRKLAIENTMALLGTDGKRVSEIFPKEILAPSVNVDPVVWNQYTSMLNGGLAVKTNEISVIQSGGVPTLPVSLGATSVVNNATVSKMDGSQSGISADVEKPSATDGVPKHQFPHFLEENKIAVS", "UniProt P15170, sequence (whole entry, looked up)": "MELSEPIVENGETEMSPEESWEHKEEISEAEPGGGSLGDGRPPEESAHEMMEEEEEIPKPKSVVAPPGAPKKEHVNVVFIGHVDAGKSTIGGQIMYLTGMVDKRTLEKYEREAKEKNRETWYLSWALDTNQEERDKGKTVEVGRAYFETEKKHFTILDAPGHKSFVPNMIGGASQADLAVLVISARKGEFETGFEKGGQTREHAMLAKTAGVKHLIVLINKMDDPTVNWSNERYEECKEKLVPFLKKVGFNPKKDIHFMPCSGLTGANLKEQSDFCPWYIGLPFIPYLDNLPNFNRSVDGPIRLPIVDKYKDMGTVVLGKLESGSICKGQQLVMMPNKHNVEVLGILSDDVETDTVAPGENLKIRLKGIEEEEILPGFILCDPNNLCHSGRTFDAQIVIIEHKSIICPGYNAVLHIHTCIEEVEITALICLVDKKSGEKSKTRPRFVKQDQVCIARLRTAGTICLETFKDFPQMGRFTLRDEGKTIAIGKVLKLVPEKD", "UniProt Q13422, sequence (whole entry, looked up)": "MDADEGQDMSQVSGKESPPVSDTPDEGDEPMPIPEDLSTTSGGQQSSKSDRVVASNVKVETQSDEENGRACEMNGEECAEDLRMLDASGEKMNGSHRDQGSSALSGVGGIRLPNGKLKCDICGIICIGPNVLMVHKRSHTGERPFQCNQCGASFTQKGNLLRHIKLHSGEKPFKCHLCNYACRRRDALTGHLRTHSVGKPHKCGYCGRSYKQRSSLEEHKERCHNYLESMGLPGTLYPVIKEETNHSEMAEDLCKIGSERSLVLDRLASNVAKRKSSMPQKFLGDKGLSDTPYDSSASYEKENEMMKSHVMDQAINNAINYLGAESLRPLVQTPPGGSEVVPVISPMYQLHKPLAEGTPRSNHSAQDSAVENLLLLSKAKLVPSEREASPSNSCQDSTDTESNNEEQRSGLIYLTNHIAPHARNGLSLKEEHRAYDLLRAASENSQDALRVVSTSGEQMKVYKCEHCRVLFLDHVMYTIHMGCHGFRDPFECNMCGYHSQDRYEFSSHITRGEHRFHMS"}
{"target": "CSNK1A1", "concentration": "370.37 nM", "remaining protein": "93.9% and 97.6%"}
{"target": "SALL4", "concentration": "13.72 nM", "remaining protein": "104% and 88.5%"}
{"target": "Zinc finger protein Aiolos (Homo sapiens, UniProt Q9UKT9)", "concentration": "0.1694 nM", "remaining protein": "98.1% and 98.7%"}
{"target": "SALL4", "concentration": "123.5 nM", "remaining protein": "93.7% and 83.7%"}
{"target": "DNA-binding protein Ikaros", "concentration": "0.1694 nM", "remaining protein": "109% and 96.2%"}
{"target": "GSPT1", "concentration": "1.524 nM", "remaining protein": "105% and 99.8%"}
{"target": "GSPT1", "concentration": "1111.11 nM", "remaining protein": "94.5% and 101%"}
{"target": "SALL4", "concentration": "1111.11 nM", "remaining protein": "81.8% and 82.8%"}
{"target": "GSPT1", "concentration": "0.5081 nM", "remaining protein": "102% and 99.3%"}
{"target": "GSPT1", "concentration": "4.572 nM", "remaining protein": "104% and 108%"}
{"target": "DNA-binding protein Ikaros", "concentration": "13.72 nM", "remaining protein": "94.6% and 101%"}
{"target": "CSNK1A1", "concentration": "123.5 nM", "remaining protein": "102% and 93%"}
{"target": "SALL4", "concentration": "41.15 nM", "remaining protein": "90.3% and 85.2%"}
{"data": "Sample 2", "SMILES": "N=C(N)NCCCCCCN1CCC23c4c5ccc(O)c4OC2c2nc4ccccc4cc2CC3(O)C1C5 (centres unmarked)"}
{"target": "Delta-type opioid receptor, with GoA (OPRD1, Homo sapiens, UniProt P41143)", "cell line": "human cells", "Emax": "83 ± 2%"}
{"target": "Delta-type opioid receptor, with Gi1 (OPRD1, Homo sapiens, UniProt P41143, S311A)", "observed": "G protein activation", "action": "agonist", "Emax": "56 ± 2%"}
{"target": "Delta-type opioid receptor, with Gi1 (OPRD1, Homo sapiens, UniProt P41143, S135A)", "observed": "G protein activation", "action": "agonist", "Emax": "12 ± 7%"}
{"target": "Delta-type opioid receptor, with Gi2 (OPRD1, Homo sapiens, UniProt P41143)", "cell line": "human cells", "Emax": "74 ± 4%"}
{"target": "Delta-type opioid receptor, with Gi3 (OPRD1, Homo sapiens, UniProt P41143)", "cell line": "human cells", "Emax": "77 ± 2%"}
{"target": "Delta-type opioid receptor, with Gi1 (Oprd1, Mus musculus, UniProt P32300)", "observed": "Gi1 activation", "action": "agonist", "method": "cell-based", "Emax": "71%"}
{"target": "Delta-type opioid receptor, with Gi1 (OPRD1, Homo sapiens, UniProt P41143, D95A)", "observed": "G protein activation", "action": "agonist", "Emax": "33 ± 7%"}
{"target": "Delta-type opioid receptor, with GoB (OPRD1, Homo sapiens, UniProt P41143)", "cell line": "human cells", "Emax": "86 ± 2%"}
{"data": "Sample 3", "SMILES": "CCOC(=O)/C=C/CN(CCCCN1c2ccccc2CCc2ccc(Cl)cc21)Cc1ccccc1.O=C(O)/C=C\\C(=O)O", "target": "E3 ubiquitin-protein ligase NEDD4, HECT domain (Homo sapiens, UniProt P46934)", "observed": "enzyme activity", "action": "inhibitor", "method": "Ub-TR-FRET", "sample": "HECT domain", "direction": "higher = more chain formation", "Target sequence (P46934 938-1319, limits assumed)": "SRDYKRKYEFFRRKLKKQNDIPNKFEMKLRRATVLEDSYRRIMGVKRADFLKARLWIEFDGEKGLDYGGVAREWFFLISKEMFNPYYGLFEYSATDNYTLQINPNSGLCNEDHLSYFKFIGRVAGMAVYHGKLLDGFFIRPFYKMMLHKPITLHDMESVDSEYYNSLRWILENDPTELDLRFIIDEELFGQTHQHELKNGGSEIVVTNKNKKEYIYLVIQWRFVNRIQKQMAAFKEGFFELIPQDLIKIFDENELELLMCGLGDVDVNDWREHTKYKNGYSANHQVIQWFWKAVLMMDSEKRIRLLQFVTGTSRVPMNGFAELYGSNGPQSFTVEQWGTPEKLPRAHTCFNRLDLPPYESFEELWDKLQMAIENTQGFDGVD"}
{"concentration": "33.33 µM", "ubiquitin chain formation AUC": "111000 a.u. and 117000 a.u. and 121000 a.u."}
{"concentration": "0.04572 µM", "ubiquitin chain formation AUC": "105000 a.u. and 96200 a.u. and 104000 a.u. and 96700 a.u. and 102000 a.u. and 94800 a.u."}
{"concentration": "0.005081 µM", "ubiquitin chain formation AUC": "94600 a.u. and 101000 a.u. and 95900 a.u. and 102000 a.u. and 103000 a.u. and 94000 a.u."}
{"concentration": "0.4115 µM", "ubiquitin chain formation AUC": "97400 a.u. and 105000 a.u. and 94600 a.u. and 104000 a.u. and 96500 a.u."}
{"concentration": "0.1372 µM", "ubiquitin chain formation AUC": "102000 a.u. and 103000 a.u. and 96200 a.u. and 96500 a.u. and 104000 a.u. and 94800 a.u."}
{"data": "Sample 4", "SMILES": "COc1cc(C(=O)OCCCN2CCCN(CCCOC(=O)c3cc(OC)c(OC)c(OCc4ccc([N+](=O)[O-])cc4)c3)CC2)cc(OC)c1OC", "route": "subcutaneous", "dose": "30 mg/kg"}
{"host": "CD-1 mouse, male", "sample": "spinal cord", "time": "12 h", "concentration [ng/mL]": 6.99}
{"host": "CD-1 mice, male", "sample": "brain", "time": "4.5 h", "concentration [ng/mL]": 155}
{"host": "mouse CD-1 male", "sample": "trigeminal ganglion", "time": "12 h", "concentration [ng/mL]": 11.5}
{"host": "CD-1 mice, male", "sample": "brain", "time": "8 h", "concentration [ng/mL]": 73.3}
{"host": "CD-1 mice, male", "sample": "spinal cord", "time": "4.5 h", "concentration [ng/mL]": 80}
{"host": "CD-1 mice, male", "sample": "brain", "time": "1.5 h", "concentration [ng/mL]": 309}
